Assay results collected from several papers.
Protocols differ between the studies behind these lines. “And” joins repeats or separate records; there may be more than shown. ± marks the error that the study gave.
NPY4R: Neuropeptide Y receptor type 4 (NPY4R, Homo sapiens, UniProt P50391)

| Compound | tested on | assay | test system | conditions | endpoint | result |
| --- | --- | --- | --- | --- | --- | --- |
| CC(C)CN(NC(=O)[C@H](CCCNC(=N)N)NC(=O)[C@H](Cc1ccc(O)cc1)NC(=O)CCCCCCC(=O)N[C@@H](Cc1ccc(O)cc1)C(=O)N[C@@H](CCCNC(=N)N)C(=O)NN(CC(C)C)C(=O)N[C@@H](CCCNC(=N)N)C(=O)N[C@@H](Cc1ccc(O)cc1)C(N)=O)C(=O)N[C@@H](CCCNC(=N)N)C(=O)N[C@@H](Cc1ccc(O)cc1)C(N)=O | NPY4R | calcium signal, antagonist |  |  | Kb | 127 nM |
| NC(=O)C[C@@H]1NC(=O)[C@H](Cc2ccc(O)cc2)NC(=O)CNC(=O)CNC(=O)[C@H](CCC(=O)O)NC(=O)[C@H](CCC(=O)O)NC(=O)[C@H](Cc2ccccc2)NC(=O)[C@@H]2CCCN2C1=O | EH domain-containing protein 1, EH domain (Homo sapiens, UniProt Q9H4M9) | peptide binding, ITC |  | 20 °C, 0 mM NaCl | Kd | 1.51 µM and 1.5 µM and 1.33 µM |
| Cc1nn(-c2cccc(N)c2)c(=O)c2cnc(Nc3ccc(N4CCNCC4)cc3)nc12 | Phosphatidylinositol 4-kinase beta (PI4KB, Homo sapiens, UniProt Q9UBF8) | enzyme activity, inhibitor |  |  | IC50 | > 10 µM |
| O=S(=O)(c1ccc(-c2ccc3ncnc(Nc4ccc(OCc5cccc(F)c5)c(Cl)c4)c3c2)cc1)N1CCCCC1 | Leishmania major | intracellular amastigote growth, luciferase | RAW264.7 macrophages |  | EC50 | > 15 µM |
| Nc1nnc(-c2ccccc2O)cc1N1CC2CCC(C1)N2c1ccnc(C#CCCN2CCCCCC2)c1 | SWI/SNF-related matrix-associated actin-dependent regulator of chromatin subfamily A member 4 (SMARCA4, Homo sapiens, UniProt P51532) | degrader, immunofluorescence | SW1573 |  | DC50 | 0.84 nM |
| Cn1ccc2c(N3CCN(CCCCOc4ccc5c(c4)NC(=O)CC5)CC3)cccc21 | Muscarinic acetylcholine receptor M1 (CHRM1, Homo sapiens, UniProt P11229) | ligand displacement, radioligand |  |  | Ki | 940 nM |
| Cc1ccc(Nc2ncnc3ccc(-c4ccc(S(=O)(=O)N5CCOCC5)cc4)cc23)cc1 | Leishmania major | intracellular amastigote growth, luciferase | RAW264.7 macrophages |  | EC50 | 20 µM |
| Cc1cccc2c1N(C(=O)n1ccnn1)CC2 | KAI2 (Arabidopsis thaliana, UniProt Q9SZU7, S95A) | ITC |  | S95A mutant | Kd | 2440 µM and 1980 µM |
| CCOC(=O)C(CCNC(=O)/C=C/c1ccc(OC)c(OC)c1/C=C/c1ccc(OC)c(OC)c1)Cc1cccc(OC)c1 (stereo not shown) | Transgelin (TAGLN, Homo sapiens, UniProt Q01995) | binding, surface plasmon resonance |  |  | Kd | 110 µM |
| NCCC(=O)O | Sodium- and chloride-dependent taurine transporter (SLC6A6, Homo sapiens, UniProt P31641) | binding, MST |  |  | Kd | 0.72 µM |
| CC(C)C[C@H](NC(=O)N(CCCNC(=N)N)NC(=O)[C@H](Cc1ccc(O)cc1)NC(=O)CCCCCCC(=O)N[C@@H](Cc1ccc(O)cc1)C(=O)NN(CCCNC(=N)N)C(=O)N[C@@H](CC(C)C)C(=O)N[C@@H](CCCNC(=N)N)C(=O)N[C@@H](Cc1ccc(O)cc1)C(N)=O)C(=O)N[C@@H](CCCNC(=N)N)C(=O)N[C@@H](Cc1ccc(O)cc1)C(N)=O | NPY4R | calcium signal, antagonist |  |  | Kb | 118 nM |
| CN(CCOCCOCCOCCOCCOCCOCCNc1cccc2c1C(=O)N(C1CCC(=O)NC1=O)C2=O)Cc1ccc(-c2[nH]c3cc(F)cc4c3c2CCNC4=O)cc1 (stereo not shown) | Poly [ADP-ribose] polymerase 1 (Parp1, Rattus norvegicus, UniProt P27008) | degrader |  |  | DC50 | 81.8 ± 17.2 nM |
| Cc1c[nH]c2nccc(-c3ccc(C(=O)N[C@@H]4c5c(F)cc(C(F)F)cc5C[C@@H]4O)cn3)c12 | BMP-2-inducible protein kinase (BMP2K, Homo sapiens, UniProt Q9NSY1) | binding, competition with immobilised ligand |  |  | Kd | 0.37 µM |

Excerpt of the above:
| Compound | tested on | assay | test system | conditions | endpoint | result |
| --- | --- | --- | --- | --- | --- | --- |
| NCCC(=O)O | Sodium- and chloride-dependent taurine transporter (SLC6A6, Homo sapiens, UniProt P31641) | binding, MST |  |  | Kd | 0.72 µM |
